Measured values from different studies.
Every numbered part comes from another study and shows a few of its results, in no order. Positions count from the first letter of the parent shown.

Series 1
Target: Phosphate system positive regulatory protein PHO4, full length, GST-tagged (PHO4, Saccharomyces cerevisiae, UniProt P07270, residues 1-312)
Method: competition protein-binding microarray
Form: double-stranded DNA, one strand shown
Medium: in vitro
Tested at: 2 µM
Notes: whole 60-bp probe, lowest competitor level
With: Cbf1 competitor, 0.05 µM
Reading: higher = stronger binding
Shared flanks, not repeated: … GTCTTGATTCGCTTGACGCTGCTG
Construct (chain): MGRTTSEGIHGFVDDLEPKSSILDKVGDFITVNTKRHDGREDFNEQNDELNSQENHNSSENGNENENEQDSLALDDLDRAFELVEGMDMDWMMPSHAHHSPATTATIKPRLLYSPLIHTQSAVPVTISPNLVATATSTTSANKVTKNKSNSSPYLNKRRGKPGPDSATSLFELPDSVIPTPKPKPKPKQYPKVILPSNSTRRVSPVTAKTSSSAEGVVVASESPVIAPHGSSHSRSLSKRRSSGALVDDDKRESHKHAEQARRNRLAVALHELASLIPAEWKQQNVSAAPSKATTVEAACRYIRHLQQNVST
Sequence	fluorescence intensity
CTAACGAAGGTTTGTGACGTGGGTGACAAGCCAAGT	5480 a.u.
TTTTACTGCAGAAAGCACGTGGAGGATCTGCTTCAT	17400 a.u.
GATGCCGATAATTTTCACATGGATGAGTCGCAGTGT	5620 a.u.
GTCTTGTCTCATTTTCACGTGGCATTCCCCACTTCA	13700 a.u.
CGTCCTAGTGATTGCTACGTGGGTGCCATGAGGAAG	9590 a.u.
AAATTACTAAGTTGCAATGTGGGTGACGCCGTATGA	5870 a.u.
TTCTACTATCCGTGAAGCGTGACGGGCCCTTCTCAA	5890 a.u.
TGCGATTCAGGTCTCAACGTGCAAAGTGCAGGAGCA	10300 a.u.
CGTCCTAGTGATTGGCAAGTGGGTGCCATGAGGAAG	6810 a.u.
CCTCACCCTAGTGAGCATGTGCCCAGGGCTGGGTCA	11600 a.u.
CTTTCCCGATCTTGGGACGTGGGTGTAGCACATTTG	7470 a.u.
GATAGTGCTGTCTGGGGCGTGCGATATGCAAAGCTT	10200 a.u.
GGTGATATACTGCGACACAATTTGTGTCTCTACTGT	4450 a.u.
TTCTTCCAATCGAGTCACGTCGCGTCCTCGGAGGCA	4670 a.u.
TTTCGATCTTCCCATCACGCATAGGGTTTTGAGCTT	5710 a.u.
ATTAAAAAGTGGATAATCGTGGGACTTATGGGTAAA	7690 a.u.
CGGGGTTAAGTTTGTCACGTCACTTGCTTGCAGCAG	4360 a.u.
CCTGTCTCCTCTCAACACGTTGCTCCTGTCAATAGT	12800 a.u.
CATACCCAACCTTGACTTGTGGGTGAAGATATTTGT	4750 a.u.
CATGAGAGCCATTTGCACGTTTACCGTTGAATTCCG	10100 a.u.
TCTGTGATACAGCGTCACATGACAATTTAAAAGTGT	7280 a.u.
CTTTCCCGATCTTGATCAGTGGGTGTAGCACATTTG	4000 a.u.
TTATCTTCAACAAGAAACGTGACGGTACTCATAAAG	11600 a.u.
GAAGATAGCGGATCGCACGATGGCTCTAACGTTAGA	8690 a.u.
AAGAAACATACCCATCACGTGACGGCAAGAATGTTA	14500 a.u.

Series 2
Target: Interferon regulatory factor 3, full length, phosphomimetic (IRF3, Homo sapiens, UniProt Q14653, residues 1-427, S386D/S396D/S398D/S402D/T404D/S405D)
Method: protein-binding microarray
Form: double-stranded DNA, one strand shown
Medium: in vitro
Tested at: 2540 nM top
Notes: 60-bp whole probe
With: salmon DNA 0.4 mg/ml
Relative to: random background probes
Reading: higher = stronger binding
Shared flanks, not repeated: GCCTAGCAC … GTCTTGATTCGCTTGACGCTGCTG
Target sequence (chain): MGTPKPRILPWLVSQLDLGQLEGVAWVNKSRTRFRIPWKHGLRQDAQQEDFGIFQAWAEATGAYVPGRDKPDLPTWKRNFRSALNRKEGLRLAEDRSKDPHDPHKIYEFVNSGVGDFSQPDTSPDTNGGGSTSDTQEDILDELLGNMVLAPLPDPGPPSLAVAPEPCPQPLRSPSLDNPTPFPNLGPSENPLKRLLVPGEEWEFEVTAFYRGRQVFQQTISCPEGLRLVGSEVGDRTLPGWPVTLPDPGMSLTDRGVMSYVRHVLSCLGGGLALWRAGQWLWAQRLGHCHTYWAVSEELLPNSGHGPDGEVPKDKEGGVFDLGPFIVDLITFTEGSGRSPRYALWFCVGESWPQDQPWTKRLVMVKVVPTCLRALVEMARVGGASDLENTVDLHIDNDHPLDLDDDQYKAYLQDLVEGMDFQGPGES
Sequence	fitted relative affinity [z-score]
TCAGCTTTCCTTCTTGAACTGTGCTAG	7.41
GACGGTATCCTACTGCTGAAGTGCTAG	2.75
GACGAACTTAGTTTCGAGACGTGCTAG	2.42
TTAGAACTGCGGTATCGATTAGTGCTA	0.322
ATAGGTATCGGGACTGGGTTAGTGCTA	1.3
TCAACATTCACCATGGCACTGTGCTAG	0.033
CAAACACTAGTTTTTACTTTGTGCTAG	1.6
GACGGTTTCTTTATCCTGACGTGCTAG	3.44
TGGGATTTTTAGTTAGAAAAGTGCTAG	-0.242
GGCGAACTGAGACTGGAGACGTGCTAG	-0.425
TCATTTCTGTGTCACAGACTGTGCTAG	2.2
GACGGTATCGGGACTGGGGGCGTGCTA	1.93
TTAGAACTGGGGTATCGATTTGTGCTA	-0.00202
AAGTGTGCCCATCTCTGCTCGTGCTAG	1.25
TTAGGTATCCATTTCCTTTAGTGCTAG	5.77
TTCGGTATCGACTATCGGTTAGTGCTA	1.21
TCATCTAACCTCTCTAATACTGTGCTA	0.6

Series 3
Target: RNA binding protein fox-1 homolog 2, RRM domain, GST-SBP tag (RBFOX2, Homo sapiens, UniProt O43251-10, residues 100-194)
Method: RNA Bind-n-Seq
Form: RNA
Medium: in vitro
Tested at: 365 nM
Notes: natural RNA segment, single round, ends assumed
Relative to: no-protein control
Reading: higher = stronger binding
Shared flanks, not repeated: GGGAGUUCUACAGUCCGACGAUC … UGGAAUUCUCGGGUGCCAA
Construct (chain): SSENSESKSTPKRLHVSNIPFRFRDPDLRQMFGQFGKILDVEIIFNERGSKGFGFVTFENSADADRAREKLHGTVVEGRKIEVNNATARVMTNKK
Sequence	RBNS enrichment (R)
AGAUGUGGCAAGAUCACCAUUAGCAAAUGGAAAUUACAUUUGAAAGCCAUUAGACUUAUAGGUGAUGCAAGCAUCUAAGAGAGAGGUUAAUCACACUAUAGAGGCAUAAG	0.451
UGUGGCAAUGGGGGUUUUUAUUGCCAUUCAUUCUUUAGCAACCUGGACUGCCAUCUUGGCAGACCUGAACUUUGCUGAGCCUGAUUUUCACAAAGGAGUAGGCCAUGUAG	0.256
UAUAAGAGAACUAAUUUUUCCAUUUGCAUAUUAAUAUGUUCCUCUAUACAUGUAAAGACACAGUGGCUCUGUGUGUCAUCAAGCAGCUGUAUUUUAUGUAUGCUUUACUG	0.622
GAGACACUUUAGGAAGAUAAACUGAGCUUGAUCCUCAUCAUAUAGCCAGUUCCAUCACUCAGGUAGUGCCUGAAUCAACCUUCAGAGCCUGAUUAGUCACAUAUCAUUGG	0.301
UUCUAAGCCAGAAGCAAACAAGAAUUACUGAAAUCUACCCCAUGAAUACUUGGAAGGCAGUAAUUGUGAGUGACACCUCAGUUCAUCAACCCCUUAAUAAUAUCAGCUUA	0.387
GCUCAUUUUUUCAUGUUUUGUGAAUACUCUGGUCUUGCUGUAAGCUAAUGUCAUGGCUGUGGGAUAUUAGAGAAGUGGGUUUAUGACUCUGAAGACCAGCAGACACCAGA	0.587
GAUUAGUCUGAAUGUUUGCAGGCAUUGGAAUAAAAUUUGACUUAUUUUUUCCCUCUUCCCCUGUCAACCUGAAUCCUGUAUCUGUUUGGGGUAUACUGGCUGUUUGUUAC	1.7
UUGGAAGUGAGCAGGACAAAGACCAUGUUUUAGAGAUGUGAUAACUUCCUAGGACUAAGUUUACUAAACUACACUGAAGCUAUUAUACUUUCUAGAUCAGAAAAAUUAUA	0.338
GUCCAAUUGCAGUUCUUCUUCGCAUAGAAAUGCAAUUGGAAUAUUUACAAAUCAUAAUCAACAGAGCCCCAGGGGCAAAAUAGACAUUCUAUUUGUCAGCUGUUGCUGCU	0.369
GCUUGAUUCAAAACCAAGGAAACCAGAACCAUUGAUCUUCUAUCUCUGUGAUUGCUAAGCAGUAGCCAAAUAACCUUCCUUUGCUGUAUCUGCGUCCCUUCUGAAGGCAC	0.422
CCCUUGGGUUGCUUGCCAGACUCUUGAGUUGGCUCAUUUGUCCGGGCAGGGUUGGCUGGUAUGGUCAUCAGUAUGGGUCGUGACAGUCAAUGUCACUUCCUUCUCUAGGA	0.298
UAAUGAUUGCAAUCAUACAGUGCUUAAUAUGUGCCAGACACAGUGCCAAGGGCUUGCAUGCAUUAUCUCCUUUAAUCCACAAGCAGCUCUGGCGAGGUGGUAUUAGCCCA	2.27

Series 4
Target: Histone acetyltransferase KAT6A, both winged helices, GST fusion (KAT6A, Homo sapiens, UniProt Q92794, residues 1-181)
Method: protein binding microarray
Form: double-stranded DNA, one strand shown
Medium: in vitro
Tested at: not given
Notes: 8-mer, flanks averaged, mean of 2 arrays, mostly near background
Relative to: not given
Reading: higher = stronger binding
Construct (chain): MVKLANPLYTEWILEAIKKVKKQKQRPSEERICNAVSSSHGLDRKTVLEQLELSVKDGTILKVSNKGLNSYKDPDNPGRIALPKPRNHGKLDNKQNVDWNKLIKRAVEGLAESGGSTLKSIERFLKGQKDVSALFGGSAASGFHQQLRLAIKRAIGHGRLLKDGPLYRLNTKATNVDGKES
Sequence	E-score
TGTACAAA	-0.0881
GTGTCATA	-0.0318
AAACAAAT	-0.142
GTAGCTAA	-0.0489
ACTGCCGG	0.205
GACTAGAC	-0.0917
AGTTGCGG	0.072
CTCTAGAC	-0.172
CCTCGACA	-0.051
CGTGCCGC	0.269
CCCTTCCG	0.118
CGACGCCA	0.172
CGAGGCAA	-0.0887
GGGGTAGA	-0.0773
AATCATGG	-0.204
GGGCGAAA	-0.0423
GGTCAGAC	0.00112
ACGGCCCG	0.274
AGCTGACC	-0.0592
CCATTGGC	-0.0938
CTTGCTGC	-0.0556
GCAACACC	0.0857
TCTGGGCA	-0.186

Series 5
Target: CEP164, C-terminal peptide (human)
Method: DHFR complementation, deep sequencing
Medium: yeast
Notes: single substitutions, model-inferred values
Relative to: wild type
Reading: higher = weaker binding
Starting sequence: PDZK1, PDZ domain 2 (human); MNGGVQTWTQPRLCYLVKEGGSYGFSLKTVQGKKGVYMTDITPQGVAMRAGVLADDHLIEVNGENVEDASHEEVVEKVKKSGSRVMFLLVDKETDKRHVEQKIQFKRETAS; partner HNRVKVYRF
Substitution	binding free energy change [kcal/mol]
T7D	-0.00522
S83D	-0.0486
R49G	0.511
S81Y	0.58
S83K	-0.0423
V66Y	1.06
D68P	0.616
S22A	0.158
V30F	0.254
V99F	-0.149
E67D	0.473
I103W	-0.129
Y15T	-0.199
A50T	0.501
G21L	0.136
I103H	-0.122
M86L	0.27
K106Y	-0.0971
V75E	1.02
V74D	0.899
P43F	0.115
E60T	0.0719

Some of these lines once more (series 1):
Sequence	fluorescence intensity
TGCGATTCAGGTCTCAACGTGCAAAGTGCAGGAGCA	10300 a.u.
CGTCCTAGTGATTGGCAAGTGGGTGCCATGAGGAAG	6810 a.u.
CCTCACCCTAGTGAGCATGTGCCCAGGGCTGGGTCA	11600 a.u.
CTTTCCCGATCTTGGGACGTGGGTGTAGCACATTTG	7470 a.u.
GATAGTGCTGTCTGGGGCGTGCGATATGCAAAGCTT	10200 a.u.
GGTGATATACTGCGACACAATTTGTGTCTCTACTGT	4450 a.u.
TTCTTCCAATCGAGTCACGTCGCGTCCTCGGAGGCA	4670 a.u.
TTTCGATCTTCCCATCACGCATAGGGTTTTGAGCTT	5710 a.u.
ATTAAAAAGTGGATAATCGTGGGACTTATGGGTAAA	7690 a.u.
CGGGGTTAAGTTTGTCACGTCACTTGCTTGCAGCAG	4360 a.u.
